{"data": "Results from different studies", "note": "Compare with care: the assays were run in different laboratories. Values joined by “and” are separate records of one study, mostly repeats; a detail may differ. ± marks the error that the study gave."}
{"Structure (SMILES)": "CC[C@H](C)CCCCC(=O)N[C@@H](CCN)C(=O)N[C@H](C(=O)N[C@@H](CCN)C(=O)N[C@H]1CCNC(=O)[C@H]([C@@H](C)O)NC(=O)[C@H](CCN)NC(=O)[C@H](CCN)NC(=O)[C@H](CC(C)C)NC(=O)[C@@H](CC(C)C)NC(=O)[C@H](CCN)NC1=O)[C@@H](C)O", "organism": "Escherichia coli", "assay": "daily serial passaging", "system": "ATCC 8739", "conditions": "highest sub-MIC, 39 days", "scale": "reference: initial MIC", "endpoint": "MIC fold change", "value": 1.37}
{"Structure (SMILES)": "Cc1cc(C(=O)Nc2nc3cccc(C)c3n2[C@H]2CCCCN(C(=O)/C=C/CN(C)C)C2)ccn1", "organism": "Trypanosoma brucei brucei", "system": "2T1 CLK1 C215S overexpressing", "conditions": "0.2778 µM, 72 h", "endpoint": "survival", "value": "78.5% and 93.9% and 87.4% and 77.1% and 80.7% and 93.2%"}
{"Structure (SMILES)": "COc1ccc(C2=[N+]([O-])c3ccccc3N3CC(C)(C)CN=C23)cc1", "organism": "Bacteroides fragilis", "assay": "microbial growth", "endpoint": "MIC50", "value": "0.25 µg/mL"}
{"Structure (SMILES)": "FC(F)(F)c1cccc(CNc2nc(NC3CCN(Cc4ccccc4)CC3)c3nc[nH]c3n2)c1", "organism": "Cryptococcus neoformans", "assay": "RNA-seq, item: YMR1 (CNAG_00390)", "conditions": "48 µg/mL, 3 h", "scale": "reference: untreated", "endpoint": "mRNA fold change", "value": 1.54}
{"Structure (SMILES)": "O=c1n(CCNCCOS(=O)(=O)c2ccccc2)c(=O)n(S(=O)(=O)c2ccccc2)c(=O)n1S(=O)(=O)c1ccccc1", "organism": "Aspergillus fumigatus", "assay": "broth microdilution", "endpoint": "MLC", "value": "32 ± 3 µg/mL"}
{"Structure (SMILES)": "CCOC(=O)C1(Cc2ccc([N+](=O)[O-])cc2)Oc2cc(F)ccc2N(Cc2ccc([N+](=O)[O-])cc2)C1=O (stereo not shown)", "organism": "Amaranthus retroflexus", "assay": "fresh weight, greenhouse postemergence", "conditions": "postemergence, 150 g ai/ha, 21 days", "endpoint": "inhibition", "value": "54.4 ± 4.98%"}
{"Structure (SMILES)": "CC(C)[C@H]1NC(=O)[C@H](Cc2ccccc2)NC(=O)[C@@H](C(C)C)NC(=O)[C@@H](C)NC(=O)[C@H](CO)NC(=O)[C@@H](Cc2c(-c3ccc(C4CCCCC4)cc3)[nH]c3ccccc23)NC(=O)[C@@H](CO)NC1=O", "organism": "Vibrio vulnificus", "assay": "broth dilution", "endpoint": "MIC90", "value": "> 50 µM"}
{"Structure (SMILES)": "COc1ccc(C2=[N+]([O-])c3ccccc3N3CCCN=C23)cc1", "organism": "Bacteroides fragilis", "assay": "microbial growth", "endpoint": "MIC50", "value": "1 µg/mL"}
{"Structure (SMILES)": "CC(C)CCCCCCCCC/C=C/C(=O)N[C@@H](CC(=O)O)C(=O)N[C@H]1CNC(=O)[C@@H]2CCCN2C(=O)[C@H](C(C)C)NC(=O)[C@@H](CN)NC(=O)CNC(=O)[C@H](CC(=O)O)NC(=O)CNC(=O)[C@H](CC(=O)O)NC(=O)[C@H](CC(=O)O)NC(=O)[C@H]2CCCCN2C1=O", "organism": "Enterococcus", "assay": "broth microdilution", "system": "VRE 155, Mueller-Hinton broth, Mg2+ 10 mg/L", "conditions": "16 h, with: Ca2+ 5 mM", "endpoint": "MIC", "value": "1 µg/mL"}
{"Structure (SMILES)": "CC(N)C(O)CCCCCCCCCCCCCCC(=O)CCCCCCCC(O)C(C)N (stereo not shown)", "organism": "Acinetobacter baumannii", "assay": "resazurin", "system": "ATCC 19606", "conditions": "50 µM", "endpoint": "growth inhibition", "value": "5 ± 12.4%"}
{"Structure (SMILES)": "CCc1nn(C)c2nc(-c3ccc(C(=O)O)cc3)nc(NCc3ccccc3)c12", "organism": "Cryptosporidium parvum", "system": "HCT-8", "conditions": "EC90, 24 h", "scale": "reference: DMSO control", "endpoint": "parasite number", "value": "69.2% and 48.8% and 46% and 38.9%"}
{"Structure (SMILES)": "O=C(CCN(CCC(=O)N[C@@H](Cc1c[nH]c2ccccc12)C(=O)O)C(=O)CCN(CCC(=O)N(CCC(=O)N[C@@H](Cc1c[nH]c2ccccc12)C(=O)O)CCC(=O)N[C@@H](Cc1c[nH]c2ccccc12)C(=O)O)C(=O)[C@H]1C[C@@H](C(=O)N(CCC(=O)N(CCC(=O)N[C@@H](Cc2c[nH]c3ccccc23)C(=O)O)CCC(=O)N[C@@H](Cc2c[nH]c3ccccc23)C(=O)O)CCC(=O)N(CCC(=O)N[C@@H](Cc2c[nH]c3ccccc23)C(=O)O)CCC(=O)N[C@@H](Cc2c[nH]c3ccccc23)C(=O)O)C[C@@H](C(=O)N(CCC(=O)N(CCC(=O)N[C@@H](Cc2c[nH]c3ccccc23)C(=O)O)CCC(=O)N[C@@H](Cc2c[nH]c3ccccc23)C(=O)O)CCC(=O)N(CCC(=O)N[C@@H](Cc2c[nH]c3ccccc23)C(=O)O)CCC(=O)N[C@@H](Cc2c[nH]c3ccccc23)C(=O)O)C1)N[C@@H](Cc1c[nH]c2ccccc12)C(=O)O", "organism": "human adenovirus 2", "assay": "viral replication", "system": "HEL cells", "endpoint": "EC50", "value": "30 ± 0.2 µM"}
{"Structure (SMILES)": "NCCO.O=C(O)C(Cl)Cl", "organism": "Amaranthus retroflexus", "assay": "herbicidal activity", "conditions": "15 mg/mL, 21 days, pre-emergence greenhouse", "endpoint": "inhibition", "value": "0%"}
{"note": "Excerpt of the above:"}
{"Structure (SMILES)": "O=c1n(CCNCCOS(=O)(=O)c2ccccc2)c(=O)n(S(=O)(=O)c2ccccc2)c(=O)n1S(=O)(=O)c1ccccc1", "organism": "Aspergillus fumigatus", "assay": "broth microdilution", "endpoint": "MLC", "value": "32 ± 3 µg/mL"}
